Measurements collected from several papers.
Lines come from different studies, so protocols differ. Values joined by “and” are separate records of one study, mostly repeats; a detail may differ. Numbers after ± are the reported error.

Structure (SMILES) = Nc1ncnc2c1ncn2[C@@H]1O[C@@H]2COP(=O)([S-])O[C@@H]3[C@H](O)[C@@H](COP([O-])(=S)O[C@H]2[C@H]1O)O[C@H]3n1cnc2c(N)ncnc21.[Na+].[Na+] (stereo partly drawn); test system = BALB/c mouse CT26 tumour; conditions = intratumoral, 0.5 mg/kg days 9,12,15; measurement = complete response rate; result = 40%
Structure (SMILES) = C[C@H](NC(=O)c1c(C(F)F)nn(C)c1Oc1cccc(C(F)(F)F)c1)c1ccc(C(=O)O)cc1; test system = human, advanced tumours; conditions = 250 mg; measurement = deaths; result = 12.5%
Structure (SMILES) = c1ccc2c(c1)Nc1ccccc1S2; test system = CT26 tumour-bearing mice; conditions = intraperitoneal, 100 mg/kg equivalents daily, day 3; measurement = tumour volume; result = 411 mm³
Structure (SMILES) = CCCCCN1C[C@H](O)[C@@H](O)[C@H](O)[C@@H]1CO; test system = Hexb-/- mice, female; conditions = 30 mg/kg/day; measurement = median survival; result = 150 days
Structure (SMILES) = Cc1cccc(C)c1NC(=O)C1CCCCN1 (stereo not drawn); test system = Sprague-Dawley rat, male; conditions = intrathecal, 80 mM; measurement = sensory block duration; result = 43.4 ± 6.5 min
Structure (SMILES) = [131I-].[Na+]; test system = human, paediatric intermediate-risk differentiated thyroid carcinoma; conditions = 100-150 mCi; measurement = complete response after single dose; result = 76.3%
Structure (SMILES) = C=CCNc1c(O)cc2c(O)c1C[C@@H](C)C[C@H](OC)[C@H](O)[C@@H](C)/C=C(\C)[C@H](OC(N)=O)[C@@H](OC)/C=C\C=C(/C)C(=O)N2; test = RECIST v1.0; test system = human soft tissue sarcoma; conditions = concentration not given, best response; measurement = patients with stable disease; result = 59%
Structure (SMILES) = CCCCC1(CCCC)CN(c2ccccc2)c2cc(SC)c(OCC(=O)N[C@@H](C(=O)NCC(=O)O)c3ccccc3)cc2S(=O)(=O)C1; test = measured: LDL cholesterol; test system = human, serum; conditions = 15 mg once daily, day 11; measurement = serum LDL-C; result = 72.5 mg/dL
Structure (SMILES) = CN1CCN(C(C(=O)NCCc2ccc(F)cc2)c2ccc(C#N)cc2)CC1 (stereo not drawn); test system = rat, prefrontal cortex; conditions = ip, 100 mg/kg twice daily, 7 days, added: clavulanic acid 10 mg/kg; how to read = baseline: vehicle; measurement = GLAST expression; result = no effect
Structure (SMILES) = O=C(O)CNC(=O)c1cc2ccccc2n1Cc1ccc(C2CC2)c2ccccc12; test system = mouse, acute hyperuricaemia model, serum; conditions = oral, 2 mg/kg, individual animal data; measurement = serum uric acid; result = 378 µM and 408 µM and 521 µM
Structure (SMILES) = CCCCC/C=C\C/C=C\C/C=C\Cc1ccccc1CCCC(=O)N[C@H](C)CO; test = mechanical hypersensitivity, electronic von Frey; test system = male CD1 mouse, CFA inflammatory pain, ipsilateral paw; conditions = 1 mg/kg; how to read = baseline: vehicle; measurement = duration of effect; result = 10 to 30 min
Structure (SMILES) = Cc1cn(-c2cc(NC(=O)c3ccc(C)c(Nc4nccc(-c5cccnc5)n4)c3)cc(C(F)(F)F)c2)cn1; test system = Homo sapiens; conditions = 150 mg, 6 months; how to read = direction not given; measurement = NPI caregiver distress score; result = 2.7 ± 3.7
Structure (SMILES) = COc1cc(C(=O)c2c[nH]c3cc(-c4cccc(OP(=O)([O-])[O-])c4)ccc23)cc(OC)c1OC.[Na+].[Na+]; test = bioluminescence imaging; test system = mouse orthotopic RENCA-luc kidney tumour; conditions = dose not given, 2.5 h post-treatment; measurement = bioluminescence signal reduction; result = ~90%
Structure (SMILES) = CC1(C)C(=CC=C2CCCC(C=CC3=[N+](CCCCS(=O)(=O)[O-])c4ccc(S(=O)(=O)O)cc4C3(C)C)=C2Oc2ccc(S(=O)(=O)O)cc2)N(CCCCCC(=O)NCCCC[C@H](NC(=O)[C@H](CO)NC(=O)CNC(=O)CNC(=O)CNC(=O)[C@H](Cc2ccccc2)NC(=O)[C@H](CCCNC(=N)N)NC(=O)[C@@H]2CCCN2C(=O)[C@H](CC(N)=O)NC(=O)[C@@H]2CCCN2C(=O)[C@H](CO)NC(=O)[C@@H](N)CCCCN)C(N)=O)c2ccc(S(=O)(=O)O)cc21; test = photoacoustic endoscopy; test system = CPC;Apc mice, colonic adenoma; how to read = baseline: ICG; measurement = tumour to background ratio improvement; result = 2.2 fold
Structure (SMILES) = CC[C@H](C)[C@H](NC(=O)[C@H](CCC(=O)O)NC(=O)[C@H](CCCNC(=N)N)NC(=O)[C@H](CCCNC(=N)N)NC(=O)[C@H](CCCNC(=N)N)NC(=O)[C@H](CCC(N)=O)NC(=O)[C@H](CCCNC(=N)N)NC(=O)[C@H](CCCNC(=N)N)NC(=O)[C@H](CCCCN)NC(=O)[C@H](CCCCN)NC(=O)[C@H](CCCNC(=N)N)NC(=O)CNC(=O)[C@H](Cc1ccc(O)cc1)NC(C)=O)C(=O)N[C@@H](CC(=O)O)C(=O)N[C@@H](Cc1c[nH]cn1)C(=O)N[C@@H](CC(=O)O)C(N)=O; test = novel object recognition; test system = db/db mouse; conditions = intravenous, dose not given, weekly; measurement = novel object exploration time; result = increased
Structure (SMILES) = CC[C@H](C)[C@@H]1NC(=O)[C@@H]2CCCN2C(=O)[C@H](CC(C)C)NC(=O)[C@H](CC(C)C)NC(=O)CNC(=O)[C@@H](NC(=O)[C@@H](NC(=O)[C@H](CC(=O)O)NC(=O)CNC(=O)[C@@H](NC(=O)[C@H](C)NC(=O)CNC(=O)[C@H](CCCCN)NC(=O)[C@H](CC(C)C)NC(=O)[C@H](CC(C)C)NC(=O)[C@H](CCCCN)NC(=O)CNC(=O)[C@@H](NC(=O)[C@@H](N)CC(C)C)C(C)C)C(C)C)C(C)C)CSSC[C@@H](C(=O)O)NC1=O; test = RNA-seq, measured: Tmem79; test system = mouse, traumatic brain injury model, frontal cortex and hippocampus; conditions = dose not given; how to read = baseline: TBI alone; measurement = log2 fold change; result = -1.47
Structure (SMILES) = N.N.[Cl][Pt][Cl]; test system = KSN/Slc nude mice, SAS xenograft; conditions = dose not given, day 10; measurement = tumour volume; result = 214 mm3 and 490 mm3 and 129 mm3 and 299 mm3 and 277 mm3 and 110 mm3 and 308 mm3 and 91.2 mm3
Structure (SMILES) = C[C@H]1O[C@@H](O[C@H]2CC[C@@]3(C)[C@@H](CC[C@]4(C)[C@@H]3C=C[C@]35OC[C@@]6(CCC(C)(C)C[C@H]63)[C@@H](O)C[C@]54C)[C@]2(C)CO)[C@H](O)[C@@H](O[C@@H]2O[C@H](CO)[C@@H](O)[C@H](O)[C@H]2O)[C@H]1O; test system = mouse, no ethanol, AAV8-TBG-Null, liver; conditions = dose not given, high dose; measurement = hepatic triglycerides; result = 0.0599 mmol/g protein and 0.0253 mmol/g protein and 0.0433 mmol/g protein and 0.0396 mmol/g protein and 0.0644 mmol/g protein and 0.0573 mmol/g protein
Structure (SMILES) = CN1CCN(S(=O)(=O)c2cc([N+](=O)[O-])ccc2N(CCOS(C)(=O)=O)CCOS(C)(=O)=O)CC1; test system = NSG mice, sample CI PDX; conditions = intraperitoneal, 25 mg/kg weekly x3; measurement = event-free survival; result = > 365 days
Structure (SMILES) = O=C(O)/C=C/C(=O)O.Oc1cccc2[nH]cc(CCNCc3ccccc3)c12; test system = C57BL/6J mice; conditions = subcutaneous, 0.1 mg/kg; measurement = head twitch count; result = 7 ± 0.9
Structure (SMILES) = CCc1c(C)nc(-c2ccc(Cl)s2)nc1Nc1ccc(CC(=O)O)cc1; test system = mice, chronic ethanol plus binge; conditions = intraperitoneal, 0.3 mg/kg daily, ethanol diet 4 weeks, dosed last two; how to read = baseline: vehicle; measurement = liver to body weight ratio; result = no effect

A few entries again:
Structure (SMILES) = Nc1ncnc2c1ncn2[C@@H]1O[C@@H]2COP(=O)([S-])O[C@@H]3[C@H](O)[C@@H](COP([O-])(=S)O[C@H]2[C@H]1O)O[C@H]3n1cnc2c(N)ncnc21.[Na+].[Na+] (stereo partly drawn); test system = BALB/c mouse CT26 tumour; conditions = intratumoral, 0.5 mg/kg days 9,12,15; measurement = complete response rate; result = 40%
Structure (SMILES) = C[C@H](NC(=O)c1c(C(F)F)nn(C)c1Oc1cccc(C(F)(F)F)c1)c1ccc(C(=O)O)cc1; test system = human, advanced tumours; conditions = 250 mg; measurement = deaths; result = 12.5%
Structure (SMILES) = c1ccc2c(c1)Nc1ccccc1S2; test system = CT26 tumour-bearing mice; conditions = intraperitoneal, 100 mg/kg equivalents daily, day 3; measurement = tumour volume; result = 411 mm³
